Experimental data of several laboratories.
Protocols differ between the studies behind these lines.
Medium: plasma

Structure (SMILES)	host	route	dose	notes	bioavailability [%]
Nc1nc(Cl)nc2c1ncn2Cc1cc(OCC(F)F)cc(OC(F)F)c1	Sprague-Dawley rat	oral	5 mg/kg		100
N#Cc1cnc2cc(OCC3CCNCC3)c(F)cc2c1Nc1cc(F)c(OCc2cccc(Cl)n2)cc1Cl	male Sprague-Dawley rat	oral	30 mg/kg		20
Cc1ncnc(C)c1-c1ccc(C(=O)N2CC[C@H](C(=O)Nc3cc(F)c(F)c(F)c3)C2)[nH]1	male Sprague-Dawley rat	oral	2 mg/kg		79
COc1cc2ncnc(Oc3ccc(Nc4nccc5[nH]cc(-c6ccc(F)cc6)c(=O)c45)cc3F)c2cc1OC	male Sprague-Dawley rat	oral			57
CC(C)(C)C(=O)Nc1ccc2[nH]c(CN3CCC(N(CCCN4CCOCC4)CC4OC(n5cnc6c(N)ncnc65)C(O)C4O)CC3)nc2c1 (stereo not shown)	male Sprague-Dawley rat	intraperitoneal	20 mg/kg		97.2
Cc1ccc(OCC(=O)N(Cc2cccs2)c2ccn[nH]2)cc1	male Sprague-Dawley rat	oral	100 mg/kg	single dose	0.23
CC12CC3CC(C)(C1)CC(NC(=O)Nc1ccc(C(=O)N4CCCC(C(N)=O)C4)cc1)(C3)C2 (stereo not shown)	Sprague-Dawley rat	oral	10 mg/kg		3.1
CC1(C)CC[C@]2(C(=O)O[C@@H]3O[C@H](CO[C@@H]4O[C@H](CO)[C@@H](O)[C@H](O)[C@H]4O)[C@@H](O)[C@H](O)[C@H]3O)CC[C@]3(C)C(=CC[C@@H]4[C@@]5(C)CC[C@H](O[C@@H]6OC[C@H](O)[C@H](O)[C@H]6O)[C@@](C)(CO)[C@@H]5CC[C@]43C)[C@@H]2C1	Sprague-Dawley rat	oral	150 mg/kg		0.19
COc1ccc2c(c1OCc1ccccc1)C[C@@H](C(=O)O)N(c1nc3ccc(F)cc3o1)C2	male Sprague-Dawley rat	oral	10 mg/kg		36
Cc1cc(/C=C/C#N)cc(C)c1Oc1nc(NC2CCN(Cc3ccc(P(C)(C)=O)cc3)CC2)nc2ccsc12	male Sprague-Dawley rat	oral	10 mg/kg		40.8
C=C(C)C(=O)Nc1ccc(-c2c(-c3ccc(Oc4nccc(C)n4)cc3)c3c(N)ncnc3n2C)cc1	Sprague-Dawley rat	oral			17
COc1cc(NC(C)=O)c2c(c1O)-c1c(OC)c(OC)cc3c1C(C2)N(C)CC3 (stereo not shown)	male Wistar rat	oral			76.5
OC1(C(F)(F)F)CCN(c2nc(Nc3ccnc(C(F)(F)F)c3)nc(-c3cccc(C(F)(F)F)n3)n2)C1 (stereo not shown)	Sprague-Dawley rat	oral	20 mg/kg		168
CNC(=O)N[C@]1(C)CCC[C@@]2(C)C3CC[C@@]4(C)C[C@]3(CCC21)CC4=O (single isomer, unassigned)	male Sprague-Dawley rat	oral	2 mg/kg		6.53
N=C(N)NCCC[C@H](NC(=O)[C@@H]1CCCN1C(=O)[C@H](Cc1ccccc1)NC(=O)[C@@H]1CCCN1C(=O)[C@H](Cc1c[nH]cn1)NC(=O)[C@@H](N)Cc1ccccc1)C(=O)O	rat	oral	50 mg/kg		88.2
COc1ccc2c(c1OCc1ccccc1)C[C@@H](C(=O)O)N(c1nc3ccc(C#N)cc3o1)C2	male Sprague-Dawley rat	oral	10 mg/kg		47
